Published values collected from several papers.
“And” joins repeats or separate records; there may be more than shown. ± marks the error that the study gave.
AGER: Advanced glycosylation end product-specific receptor (AGER, Homo sapiens, UniProt Q15109)
UniProt Q15109, sequence (whole entry, looked up): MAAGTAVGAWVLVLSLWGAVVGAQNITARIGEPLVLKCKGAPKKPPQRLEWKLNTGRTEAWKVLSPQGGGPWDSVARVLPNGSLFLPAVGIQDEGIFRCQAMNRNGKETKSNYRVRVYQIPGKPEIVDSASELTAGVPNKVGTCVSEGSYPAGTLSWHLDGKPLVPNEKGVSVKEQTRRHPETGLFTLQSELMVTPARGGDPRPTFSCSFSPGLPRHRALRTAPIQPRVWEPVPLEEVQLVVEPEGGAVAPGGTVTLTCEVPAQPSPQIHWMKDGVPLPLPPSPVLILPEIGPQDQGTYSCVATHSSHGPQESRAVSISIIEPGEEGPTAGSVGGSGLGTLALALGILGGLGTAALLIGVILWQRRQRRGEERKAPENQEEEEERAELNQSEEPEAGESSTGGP
JAK2: Tyrosine-protein kinase JAK2 (JAK2, Homo sapiens, UniProt O60674)
UniProt O60674, sequence (whole entry, looked up): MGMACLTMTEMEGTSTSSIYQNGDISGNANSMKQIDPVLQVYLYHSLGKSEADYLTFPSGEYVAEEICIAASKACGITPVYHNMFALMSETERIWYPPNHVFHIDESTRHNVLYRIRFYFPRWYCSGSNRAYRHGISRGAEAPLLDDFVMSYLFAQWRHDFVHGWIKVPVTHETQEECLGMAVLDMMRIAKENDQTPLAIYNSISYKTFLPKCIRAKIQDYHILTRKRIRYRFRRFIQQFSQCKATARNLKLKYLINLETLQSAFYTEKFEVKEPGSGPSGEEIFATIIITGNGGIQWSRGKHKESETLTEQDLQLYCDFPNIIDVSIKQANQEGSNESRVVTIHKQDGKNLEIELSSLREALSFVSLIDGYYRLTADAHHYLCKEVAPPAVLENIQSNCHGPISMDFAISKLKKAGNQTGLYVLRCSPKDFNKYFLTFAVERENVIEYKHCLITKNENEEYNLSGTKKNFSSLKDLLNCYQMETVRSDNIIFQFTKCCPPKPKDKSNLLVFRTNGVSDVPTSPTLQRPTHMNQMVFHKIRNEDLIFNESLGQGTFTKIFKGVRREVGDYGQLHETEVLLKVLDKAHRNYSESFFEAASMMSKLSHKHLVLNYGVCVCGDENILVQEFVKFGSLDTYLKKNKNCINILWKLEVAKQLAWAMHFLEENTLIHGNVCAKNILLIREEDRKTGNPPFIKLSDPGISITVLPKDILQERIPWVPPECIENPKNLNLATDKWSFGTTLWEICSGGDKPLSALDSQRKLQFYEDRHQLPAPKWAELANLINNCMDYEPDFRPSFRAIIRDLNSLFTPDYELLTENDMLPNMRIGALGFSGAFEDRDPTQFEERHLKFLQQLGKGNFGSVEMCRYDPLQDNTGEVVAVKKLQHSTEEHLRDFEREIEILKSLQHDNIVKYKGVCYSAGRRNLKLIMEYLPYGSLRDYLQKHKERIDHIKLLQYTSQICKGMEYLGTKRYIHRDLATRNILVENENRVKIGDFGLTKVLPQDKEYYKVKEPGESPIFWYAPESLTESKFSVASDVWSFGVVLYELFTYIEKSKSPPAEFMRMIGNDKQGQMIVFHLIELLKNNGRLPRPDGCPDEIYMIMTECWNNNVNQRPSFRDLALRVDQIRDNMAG
Htr1b: 5-hydroxytryptamine receptor 1B (Htr1b, Rattus norvegicus, UniProt P28564)
UniProt P28564, sequence (whole entry, looked up): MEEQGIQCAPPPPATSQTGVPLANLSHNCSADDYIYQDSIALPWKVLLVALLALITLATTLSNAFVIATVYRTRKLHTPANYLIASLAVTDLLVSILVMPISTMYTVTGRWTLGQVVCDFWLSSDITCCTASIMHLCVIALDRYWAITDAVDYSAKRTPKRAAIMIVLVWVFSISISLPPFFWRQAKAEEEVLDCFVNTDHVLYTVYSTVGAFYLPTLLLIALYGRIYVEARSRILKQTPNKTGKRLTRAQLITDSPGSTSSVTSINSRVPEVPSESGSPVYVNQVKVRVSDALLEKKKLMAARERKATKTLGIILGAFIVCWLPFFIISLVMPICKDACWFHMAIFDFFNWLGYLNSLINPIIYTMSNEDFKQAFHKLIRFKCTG
HDAC2: Histone deacetylase 2 (HDAC2, Homo sapiens, UniProt Q92769)
UniProt Q92769, sequence (whole entry, looked up): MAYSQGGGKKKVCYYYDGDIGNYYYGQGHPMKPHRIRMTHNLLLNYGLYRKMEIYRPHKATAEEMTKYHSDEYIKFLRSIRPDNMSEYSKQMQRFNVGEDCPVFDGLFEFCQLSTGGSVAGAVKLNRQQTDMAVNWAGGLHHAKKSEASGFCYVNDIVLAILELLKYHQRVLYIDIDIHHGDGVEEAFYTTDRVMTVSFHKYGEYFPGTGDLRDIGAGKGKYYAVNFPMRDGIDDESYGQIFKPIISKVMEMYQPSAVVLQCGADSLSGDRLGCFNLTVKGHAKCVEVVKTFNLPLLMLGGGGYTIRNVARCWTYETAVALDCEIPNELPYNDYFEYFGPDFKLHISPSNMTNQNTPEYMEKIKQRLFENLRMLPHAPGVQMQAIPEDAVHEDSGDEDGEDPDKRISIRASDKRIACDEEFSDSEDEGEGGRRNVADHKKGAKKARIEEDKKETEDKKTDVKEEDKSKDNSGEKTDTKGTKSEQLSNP
DRD5: D(1B) dopamine receptor (DRD5, Homo sapiens, UniProt P21918)
UniProt P21918, sequence (whole entry, looked up): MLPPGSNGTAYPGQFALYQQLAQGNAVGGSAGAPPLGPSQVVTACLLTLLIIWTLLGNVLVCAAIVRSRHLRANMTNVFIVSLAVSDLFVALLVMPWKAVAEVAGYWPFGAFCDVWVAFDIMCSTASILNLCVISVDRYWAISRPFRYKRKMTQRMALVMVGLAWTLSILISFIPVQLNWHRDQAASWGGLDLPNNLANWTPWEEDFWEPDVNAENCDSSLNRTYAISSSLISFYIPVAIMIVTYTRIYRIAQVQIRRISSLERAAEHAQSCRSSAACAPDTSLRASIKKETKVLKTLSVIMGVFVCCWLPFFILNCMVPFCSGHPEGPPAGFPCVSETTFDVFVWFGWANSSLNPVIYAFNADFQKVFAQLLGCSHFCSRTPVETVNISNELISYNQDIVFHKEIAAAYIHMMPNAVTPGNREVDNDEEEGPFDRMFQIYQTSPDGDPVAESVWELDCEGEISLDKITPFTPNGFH
CTSB: Cathepsin B (CTSB, Homo sapiens, UniProt P07858)
SRD5A1: 3-oxo-5-alpha-steroid 4-dehydrogenase 1 (SRD5A1, Homo sapiens, UniProt P18405)
UniProt P18405, sequence (whole entry, looked up): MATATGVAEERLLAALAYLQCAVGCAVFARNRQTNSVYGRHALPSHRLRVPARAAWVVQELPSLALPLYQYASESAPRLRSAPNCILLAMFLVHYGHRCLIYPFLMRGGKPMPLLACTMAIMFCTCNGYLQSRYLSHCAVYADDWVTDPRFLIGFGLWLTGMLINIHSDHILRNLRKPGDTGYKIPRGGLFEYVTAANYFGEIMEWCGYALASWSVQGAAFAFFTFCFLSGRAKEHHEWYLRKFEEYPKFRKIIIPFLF
ADRA1B: Alpha-1B adrenergic receptor (ADRA1B, Homo sapiens, UniProt P35368)
UniProt P35368, sequence (whole entry, looked up): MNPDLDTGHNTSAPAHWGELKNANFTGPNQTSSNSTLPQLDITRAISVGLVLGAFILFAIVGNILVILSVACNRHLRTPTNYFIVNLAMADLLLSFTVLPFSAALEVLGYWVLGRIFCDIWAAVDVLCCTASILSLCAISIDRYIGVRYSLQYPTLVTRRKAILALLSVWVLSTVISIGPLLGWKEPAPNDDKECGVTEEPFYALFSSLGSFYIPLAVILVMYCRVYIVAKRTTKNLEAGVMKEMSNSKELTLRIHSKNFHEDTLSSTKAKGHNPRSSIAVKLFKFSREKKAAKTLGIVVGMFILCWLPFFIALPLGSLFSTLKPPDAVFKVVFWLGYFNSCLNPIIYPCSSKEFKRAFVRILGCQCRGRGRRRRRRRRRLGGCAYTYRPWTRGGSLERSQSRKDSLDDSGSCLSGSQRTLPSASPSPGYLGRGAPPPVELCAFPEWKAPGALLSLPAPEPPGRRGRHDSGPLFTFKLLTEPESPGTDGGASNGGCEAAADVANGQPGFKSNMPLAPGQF
SIRT2: NAD-dependent protein deacetylase sirtuin-2 (SIRT2, Homo sapiens, UniProt Q8IXJ6)
UniProt Q8IXJ6, sequence (whole entry, looked up): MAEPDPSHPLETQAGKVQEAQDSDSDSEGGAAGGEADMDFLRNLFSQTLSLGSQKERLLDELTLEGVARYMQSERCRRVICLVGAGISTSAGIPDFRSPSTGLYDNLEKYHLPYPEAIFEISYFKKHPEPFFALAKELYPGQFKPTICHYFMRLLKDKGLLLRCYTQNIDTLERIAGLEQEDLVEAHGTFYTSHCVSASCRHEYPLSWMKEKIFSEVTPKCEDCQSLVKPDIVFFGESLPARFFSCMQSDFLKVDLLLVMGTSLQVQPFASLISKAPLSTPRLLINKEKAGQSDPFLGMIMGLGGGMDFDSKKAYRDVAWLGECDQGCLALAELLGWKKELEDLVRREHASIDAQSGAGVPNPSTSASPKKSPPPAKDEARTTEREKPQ
UniProt P09237, sequence (whole entry, looked up): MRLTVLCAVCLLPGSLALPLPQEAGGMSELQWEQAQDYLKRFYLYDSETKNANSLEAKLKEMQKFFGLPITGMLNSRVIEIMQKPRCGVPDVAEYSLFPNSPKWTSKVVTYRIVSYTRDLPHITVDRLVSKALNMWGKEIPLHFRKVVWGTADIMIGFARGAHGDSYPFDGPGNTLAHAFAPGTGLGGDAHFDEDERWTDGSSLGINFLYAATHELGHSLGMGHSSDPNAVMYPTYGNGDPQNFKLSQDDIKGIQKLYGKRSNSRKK
UniProt P03372, sequence (whole entry, looked up): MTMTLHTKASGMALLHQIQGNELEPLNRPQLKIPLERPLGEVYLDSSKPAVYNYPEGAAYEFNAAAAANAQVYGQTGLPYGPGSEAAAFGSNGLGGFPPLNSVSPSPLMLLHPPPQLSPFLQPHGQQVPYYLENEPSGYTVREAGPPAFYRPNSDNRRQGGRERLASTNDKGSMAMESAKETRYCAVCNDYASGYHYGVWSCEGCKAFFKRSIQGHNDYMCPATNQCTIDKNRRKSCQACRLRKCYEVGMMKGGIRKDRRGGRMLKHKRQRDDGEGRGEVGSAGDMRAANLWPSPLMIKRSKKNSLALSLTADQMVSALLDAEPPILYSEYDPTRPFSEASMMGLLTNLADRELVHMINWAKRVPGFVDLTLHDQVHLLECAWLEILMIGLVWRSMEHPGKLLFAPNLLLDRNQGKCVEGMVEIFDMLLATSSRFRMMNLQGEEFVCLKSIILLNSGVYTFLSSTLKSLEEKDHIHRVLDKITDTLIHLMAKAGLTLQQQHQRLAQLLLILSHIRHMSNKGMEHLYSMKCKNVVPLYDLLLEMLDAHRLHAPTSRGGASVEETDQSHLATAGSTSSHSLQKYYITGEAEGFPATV

Compound | target | assay | test system | conditions | inhibition
O=C(Nc1ccc(F)cc1)Nc1ccc(C2CC(c3ccc(Cl)cc3)=NN2C(=O)Nc2ccc(F)cc2)cc1 (centres unmarked) | AGER |  |  | 100 µM | 32%
Cc1cnc2nc1Nc1cccc(c1)COC/C=C/COCc1cc(ccc1OCCN1CCOCC1)N2 | JAK2 | inhibitor, Z'-LYTE kinase |  | 0.9766 nM | 39.9% and 37.3% and 43.6%
CN1CCN(Cc2ccc(-c3ccc(CO[C@H]4CCC[C@@H]4NC(=O)c4cc(-c5cnn(C)c5)cnc4N)cc3)cc2)CC1 | 5'-AMP-activated protein kinase catalytic subunit alpha-2, with beta2 gamma3 (PRKAA2, Homo sapiens, UniProt P54646) | SelectScreen kinase profiling |  | 0.1 µM | -2%
CO[C@@H](C)c1c(NC(=O)Nc2cnc(-n3nccn3)c(C(F)(F)F)c2)cnc2sc(C)nc12 | Htr1b | ligand displacement, radioligand |  | 10 µM | 2%
CC(C)(C)c1ccccc1OS(=O)(=O)Oc1cccc(C(=O)NO)c1 | HDAC2 | enzyme activity, inhibitor, fluorescence |  | 10 µM | 15%
COc1ccc(C(=O)Nc2c(-c3cccs3)nc3ccccn23)cc1 | DRD5 | ligand displacement, radioligand |  | 10 µM | < 50%
C[C@H](NC(=O)[C@H](CC(=O)NCC(C)(C)C)NC(=O)CCc1ccccc1)C(=O)NCc1ccccc1Cl | CTSB | enzyme activity, inhibitor |  | 100 µM | -7%
CN(Cc1ccc(/C=C/C(=O)NO)cc1)CC12CC3CC(CC(C3)C1)C2 | human B2 receptor | agonist radioligand binding |  | 0.05 µM | 6%
COCC(=O)N1CCc2cc(-c3csc(NC(=O)c4cc(OC)cc(OC)c4)n3)ccc21 | Estrogen receptor (ESR1, Homo sapiens, UniProt P03372) | cell-free assay |  | 10 µM | 6%
Cc1ccnc(OC[C@H]2CN(CCN3CCc4ccccc43)CCO2)c1 | DRD5 | radioligand binding |  | concentration not given, together with: [3H]SCH23390 | 23.7%
COc1cc(/C=C/C(=O)O)ccc1O | SRD5A1 | enzyme activity in cells, inhibitor | HaCaT | 50 µM | 4.01%
O=C1c2sc(-c3ccc(N4CCC(F)C4)nc3F)nc2CCN1c1cccnc1 (centres unmarked) | ADRA1B | ligand displacement, radioligand |  | 1 µM | 11%
Cc1[nH]nc2c1N=C(c1ccccc1Cl)c1cnc(N3CCOCC3)cc1N2 | Glucocorticoid receptor (NR3C1, Homo sapiens, UniProt P04150) | cell-free assay |  | 10 µM | 93%
Cn1ccc2cc(-n3c(=O)[nH]c4sc5c(c4c3=O)CCCC5)ccc21 | ADRA1B | cell-free assay, radioligand |  | 10 µM | 14%
CCCCCCCCCCCCCCN(O)C(=O)CCCCC[C@@H]1NC(=O)[C@H]([C@@H](C)CC)NC(=O)[C@H](Cc2ccccc2C(F)(F)F)NC(=O)CCSCc2cccc(n2)CSCCCNC1=O | HDAC2 | enzyme activity, inhibitor, fluorogenic |  | 30 µM | 50%
CC(=O)C12NC(C)(C)CC1(C)C(=O)C1=C2c2c(c3c4n2C(C)(C)CC2=C4C4(CC(C)(C)NC(C)(C4)C2=O)CC3(C)C)C(=O)C(C)(C)N1 (single isomer, unassigned; (-)) | P2X purinoceptor 3 (P2RX3, Homo sapiens, UniProt P56373) | ion current, antagonist, whole-cell patch clamp | HEK293T | 10 µM | 7.06 ± 0.06%
CCCCCCCCCCCCNC(=S)NCCCC[C@H](NC(=O)OCc1ccccc1)C(=O)N1CCC[C@H]1C(=O)N[C@@H](CCCNC(=N)N)C(N)=O | SIRT2 | enzyme activity, inhibitor |  | 100 µM | 40%
COc1cc(/C=C/C(=O)Oc2ccc(C(F)(F)F)c(C(F)(F)F)c2)ccc1OC(C)=O | SRD5A1 | enzyme activity in cells, inhibitor | HaCaT | 50 µM | 15%
CC(C)[C@@H]1NC(=O)[C@H](Cc2ccc(O)cc2)NC(=O)[C@H](Cc2ccccc2)NC(=O)[C@H]([C@@H](C)O)NC(=O)[C@@H](Cc2ccc(O)cc2)NC(=O)CSC[C@H](C(=O)NCCOCCOCCOCCOCCOCCOCCC(N)=O)NC(=O)[C@H](C)NC(=O)[C@H](CO)NC(=O)[C@@H]2CCC[C@@H]2NC(=O)[C@H](Cc2c[nH]cn2)NC(=O)[C@H](CCCNC(=N)N)NC(=O)[C@H](Cc2ccc(O)cc2)NC(=O)[C@H]([C@@H](C)O)NC(=O)[C@H](Cc2ccccc2)NC(=O)[C@H]([C@@H](C)O)NC(=O)[C@H](Cc2ccc(O)cc2)NC(=O)[C@H](Cc2ccccc2)NC1=O | Matrilysin (MMP7, Homo sapiens, UniProt P09237) | enzyme activity, inhibitor |  | concentration not given, high-affinity phase of biphasic curve | ~65%

Compound | target | assay | test system | conditions | inhibition
N#Cc1cc(C(=O)c2cc(Br)ccc2O)cn(-c2ccccc2Cl)c1=O | Adenylate cyclase type 10 (Homo sapiens, UniProt Q96PN6) | inhibitor |  | 10 µM | 67.6%
Cc1ccc(N(O)/N=N/c2ccc(S(=O)(=O)Nc3nccs3)cc2)cc1 | α-glucosidase, rat intestine | enzyme activity |  | 180 µg/mL, together with: 4-nitrophenyl α-D-glucopyranoside | 30 ± 0.04%
O=C(Nc1ccc(Cl)cc1)Nc1ccc(C2CC(c3ccc(Cl)cc3)=NN2C(=O)Nc2ccc(Br)cc2)cc1 (centres unmarked) | AGER |  |  | 100 µM | 34%
NC(=O)C[C@H]1CCc2sc3ncnc(O[C@H]4CC[C@H](N5CCOCC5)CC4)c3c21 | Testis-specific serine/threonine-protein kinase 6 (TSSK6, Homo sapiens, UniProt Q9BXA6) | enzyme activity, inhibitor |  | 10 µM | -7%
Cc1ccc(CN(C)C(=O)C(CCc2ccccc2)NC(=O)C(NC(=O)c2ccc(OCc3ccccc3)cc2)C(C)O)cc1 (centres unmarked) | CTSB | enzyme activity, inhibitor |  | 100 µM | 20%
CCCCn1cnc2ccc(-c3ccc(NC(=O)CC)nc3)cc2c1=O | Phosphatidylinositol 5-phosphate 4-kinase type-2 gamma (PIP4K2C, Homo sapiens, UniProt Q8TBX8) | binding, competition with immobilised ligand |  | 0.5 µM | 95.2%
O=C(CN1CCO[C@@H](COc2cccc(Cl)c2)C1)N1CCc2ccccc21 | DRD5 | radioligand binding |  | concentration not given, together with: [3H]SCH23390 | 7.1%
CS(=O)(=O)Nc1cccc(-c2csc3cnc(Nc4ccc(N5CCN(CCCCCOc6cccc7c6C(=O)N(C6CCC(=O)NC6=O)C7=O)CC5)cc4)nc23)c1 (centres unmarked) | FAM20B (Homo sapiens, UniProt O75063) | probe labelling, inhibitor, KiNativ chemoproteomics | MOLT-4 | 1 µM | -5.3%
Cc1cnc2nc1Nc1cccc(c1)COCc1cc(ccc1OCCN1CCOCC1)N2 | JAK2 | inhibitor, Z'-LYTE kinase |  | 111.1 nM | 72.5% and 73.9% and 74.9%
N#Cc1c(Nc2ccccc2C(F)(F)F)s[nH]c1=O | ADP-ribosyl cyclase/cyclic ADP-ribose hydrolase 1 (CD38, Homo sapiens, UniProt P28907) | enzyme activity, inhibitor |  | 10 µM | 0%
O=C(Nc1ccc(F)cc1)Nc1ccc(C2=NNC(c3ccc(NC(=O)Nc4ccc(Cl)cc4)cc3)C2)cc1 (centres unmarked) | AGER |  |  | 100 µM | 90%
O=C(NC1CCC1)[C@H](Cc1c[nH]c2ccccc12)NC(=O)[C@H](CCCCNC(=S)NCCc1noc(=O)[nH]1)NS(=O)(=O)c1cccc(F)c1 | SIRT2 | deacylase activity |  | 1 µM, together with: NAD+ 500 µM | < 0%
C[Si](C)(C)C[C@@H](CN)CC(=O)O | Htr1b | ligand displacement, radioligand |  | 75 µM | -3%
O=C(Nc1ccc(Cl)cc1)Nc1ccc(C2CC(c3ccc(Cl)cc3)=CC(=O)C2C(=O)O)cc1 (centres unmarked) | AGER |  |  | 100 µM | 55%
C=CC(=O)N1Cc2nc(-c3cc(-c4cc(Cl)cnc4Cl)c(F)cc3F)n(-c3ccncn3)c2C1 | 5'-AMP-activated protein kinase catalytic subunit alpha-2, with beta1 gamma2 (PRKAA2, Homo sapiens, UniProt P54646) | kinome panel |  | 1 µM | 6.5%
O=C1c2sc(-c3ccc(N4CCC(CO)CC4)nc3F)nc2CCN1c1cccnc1 | Oxysterols receptor LXR-beta (NR1H2, Homo sapiens, UniProt P55055) | ligand displacement, radioligand |  | 1 µM | -3%
Brc1ccccc1-c1nnc(CSc2nnnn2-c2ccccc2)o1 | DRD5 | ligand displacement, radioligand |  | 10 µM | 12%
CCCCCCCCCCCCNC(=S)NCCCC[C@H](NC(=O)OCc1ccccc1)C(=O)N[C@@H](Cc1c[nH]c2ccccc12)C(=O)N[C@@H](CC(C)C)C(N)=O | SIRT2 | enzyme activity, inhibitor |  | 100 µM | < 5%
CCn1cc(C(=O)O)c(=O)c2c(N)c(F)c(NC3CCCCC3)cc21 | 5'-AMP-activated protein kinase catalytic subunit alpha-2, with beta1 gamma1 (PRKAA2, Homo sapiens, UniProt P54646) | kinase activity |  | 0.1 µM, together with: ATP at Km | -5.7%

Excerpt of the above:
Compound | target | assay | test system | conditions | inhibition
N#Cc1c(Nc2ccccc2C(F)(F)F)s[nH]c1=O | ADP-ribosyl cyclase/cyclic ADP-ribose hydrolase 1 (CD38, Homo sapiens, UniProt P28907) | enzyme activity, inhibitor |  | 10 µM | 0%
O=C(Nc1ccc(F)cc1)Nc1ccc(C2=NNC(c3ccc(NC(=O)Nc4ccc(Cl)cc4)cc3)C2)cc1 (centres unmarked) | AGER |  |  | 100 µM | 90%
